Experimental data from different studies.
Every numbered part comes from another study and shows a few of its results, in no order.

Series 1
Target: Centromere-binding protein 1, full length, His-tagged (CBF1, Saccharomyces cerevisiae, UniProt P17106, residues 1-351)
UniProt P17106, sequence (whole entry, looked up): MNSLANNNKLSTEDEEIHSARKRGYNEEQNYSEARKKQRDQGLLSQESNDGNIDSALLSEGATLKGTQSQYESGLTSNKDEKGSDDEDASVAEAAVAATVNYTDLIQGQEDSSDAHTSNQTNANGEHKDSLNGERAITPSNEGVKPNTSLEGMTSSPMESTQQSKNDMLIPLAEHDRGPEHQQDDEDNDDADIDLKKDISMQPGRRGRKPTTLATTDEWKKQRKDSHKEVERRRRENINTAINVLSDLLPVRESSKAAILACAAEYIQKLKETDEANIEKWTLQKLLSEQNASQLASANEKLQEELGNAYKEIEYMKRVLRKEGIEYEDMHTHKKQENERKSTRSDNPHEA
Technique: competition protein-binding microarray
Molecule type: double-stranded DNA, one strand shown
Medium: in vitro
Tested at: 2 µM
Notes: whole 60-bp probe, lowest competitor level
Added: Pho4 competitor, 0.05 µM
Direction: higher = stronger binding
Oligonucleotide | fluorescence intensity [a.u.]
GTCTTGTCTCATTGAACGGTGGGTGTCCCCACTTCAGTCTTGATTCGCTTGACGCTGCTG | 61
CATACCCAACCTTGAGAGGTGGGTGAAGATATTTGTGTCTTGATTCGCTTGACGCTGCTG | 65
TTTTTGTTCGCTACCCACGTCTTGACCGACGGTACCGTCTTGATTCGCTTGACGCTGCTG | 56
CGTCCTAGTGATTGTAATGTGGGTGCCATGAGGAAGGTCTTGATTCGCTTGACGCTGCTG | 82.6
TTCCCAAGTATTGGACACGGGGCTGGAACTTGGAATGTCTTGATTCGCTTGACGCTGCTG | 94.2

Series 2
Target: Interferon regulatory factor 7, full length, phosphomimetic (IRF7, Homo sapiens, UniProt Q92985, residues 1-503, S471D/S472D/S475D/S476D/S477D/S483D/S484D/S487D)
UniProt Q92985, sequence (whole entry, unmodified, looked up): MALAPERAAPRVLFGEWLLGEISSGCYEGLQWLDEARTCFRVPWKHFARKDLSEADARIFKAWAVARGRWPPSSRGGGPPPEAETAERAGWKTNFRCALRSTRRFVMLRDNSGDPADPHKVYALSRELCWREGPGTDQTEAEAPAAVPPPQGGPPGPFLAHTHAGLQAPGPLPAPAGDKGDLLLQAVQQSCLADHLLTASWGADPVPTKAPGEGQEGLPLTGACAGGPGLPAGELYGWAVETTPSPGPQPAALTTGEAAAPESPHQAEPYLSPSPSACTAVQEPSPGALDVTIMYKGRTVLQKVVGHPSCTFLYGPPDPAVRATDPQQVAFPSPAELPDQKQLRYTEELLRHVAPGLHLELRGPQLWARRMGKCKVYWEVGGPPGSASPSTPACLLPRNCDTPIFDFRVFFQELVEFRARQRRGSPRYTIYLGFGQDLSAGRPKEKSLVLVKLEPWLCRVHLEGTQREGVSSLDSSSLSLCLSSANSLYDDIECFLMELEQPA
Technique: protein-binding microarray
Molecule type: double-stranded DNA, one strand shown
Medium: in vitro
Tested at: 2200 nM top
Notes: 60-bp whole probe
Added: salmon DNA 0.4 mg/ml
Baseline: random background probes
Direction: higher = stronger binding
Oligonucleotide | fitted relative affinity [z-score]
GCCTAGCACGACGGTCTCCTTGTCCTGACGTGCTAGGTCTTGATTCGCTTGACGCTGCTG | 0.864
GCCTAGCACCTGTGGGAGGCCCGCGGGAGGTGCTAGGTCTTGATTCGCTTGACGCTGCTG | -1.46
GCCTAGCACGACGGACTGCCTCTCCTGACGTGCTAGGTCTTGATTCGCTTGACGCTGCTG | 0.341
GCCTAGCACGACGGTTTCGACTATTGGGACGTGCTAGTCTTGATTCGCTTGACGCTGCTG | 3.05

Single results of other studies
UNK zinc fingers 1-6, GST-SBP tag: RING finger protein unkempt homolog, zinc fingers 1-6, GST-SBP tag (UNK, Homo sapiens, UniProt Q9C0B0, residues 30-357)
UniProt Q9C0B0, sequence (30-357, looked up): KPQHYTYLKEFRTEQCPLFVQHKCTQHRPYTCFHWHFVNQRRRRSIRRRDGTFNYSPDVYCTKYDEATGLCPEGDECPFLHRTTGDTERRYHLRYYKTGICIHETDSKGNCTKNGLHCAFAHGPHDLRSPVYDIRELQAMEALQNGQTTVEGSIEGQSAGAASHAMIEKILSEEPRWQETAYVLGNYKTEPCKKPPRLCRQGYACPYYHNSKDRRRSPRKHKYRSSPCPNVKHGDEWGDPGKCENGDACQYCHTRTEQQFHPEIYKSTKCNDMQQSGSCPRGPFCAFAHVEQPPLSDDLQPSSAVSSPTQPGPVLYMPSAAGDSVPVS
Substance | target | assay | test system | conditions | how to read | endpoint | value
GGGAGUUCUACAGUCCGACGAUCCGGUAUCCAGACAUCCGCAUUGAAGGCGAGAAUUAUCUCCCUCAACCAAUUUAUAGACACACCGCAUCUUUCCUGUCAGUCUUCAAACUAGUAUUAAUAGGCUUAAUAAUUGUUGGCAAACAACAGAGGAUUGAGCAUCA | UNK zinc fingers 1-6, GST-SBP tag | RNA Bind-n-Seq | RNA, in vitro | not given, RNA with constant flanks, ends assumed | baseline: input RNA pool, higher = stronger binding | bound/input enrichment | 37 ratio
PhoQ, residues 284 288 289 292 302 303 SMMNNA | PhoP, residues 12 14 15 18 19 SEGLL (Escherichia coli, UniProt P23836) | Sort-seq, refers to: YFP reporter | E. coli | PhoQ-PhoP variant library, added: 10 µM Mg2+ | baseline: high Mg2+ state, higher = stronger signaling | fold induction | 16.6
GGGAGUUCUACAGUCCGACGAUCACUCUUGACUCUUUCCAUUCUCGUCCCUUCCCUCUUGAUAUUCAAGGCCAUGAAUCCCAAAAUAACAGUCUUAGUGGCUAGCACCCAAACAGAGGUGGAAUAAAUCCACCCCAGUGUCUCCAACAGAGGAUUGAGCAUCA | UNK zinc fingers 1-6, GST-SBP tag | RNA Bind-n-Seq | RNA, in vitro | not given, RNA with constant flanks, human-mouse chimeric sites, ends assumed | baseline: input RNA pool, higher = stronger binding | bound/input enrichment | 0.524 ratio
GGGAGUUCUACAGUCCGACGAUCACCACUGCACUUUCCAGACAAGCAGGCCAAGAAACUCUUUCAGUCCUCAAGUUCACCAAGUCUCCGCAUACAGUGUGUGCCCAGAACUACUGGAAACUGAAUGCAUUUAGCAUAUUUUGACAACAGAGGAUUGAGCAUCA | UNK zinc fingers 1-6, GST-SBP tag | RNA Bind-n-Seq | RNA, in vitro | not given, RNA with constant flanks, ends assumed | baseline: input RNA pool, higher = stronger binding | bound/input enrichment | 0.426 ratio
GGGAGUUCUACAGUCCGACGAUCGCUCUUGGGAAUGUAAUCAGCGCCUUGGGGGACAAGAGCAAGAGAGCCACCCAUGUCCCCUAUAGAGACUCUAAGCUGACAAGACUCUUGCAGGAUUCCCUUGGGGGUAACAGCCAAACCCAACAGAGGAUUGAGCAUCA | UNK zinc fingers 1-6, GST-SBP tag | RNA Bind-n-Seq | RNA, in vitro | not given, RNA with constant flanks, human-mouse chimeric sites, ends assumed | baseline: input RNA pool, higher = stronger binding | bound/input enrichment | 0.204 ratio
